Experimental data from different studies.
Compare with care: the assays were run in different laboratories. Numbers after ± are the reported error.

CNCCNC(=O)c1cc2c([nH]c3c(C)cccc32)c(-c2ccc(Cl)c(Cl)c2)n1
half-life (human liver microsomes): 3.73 h

[2H]C1(C(=O)Nc2ccc3cc(C(=O)O)ccc3c2)CCN(S(=O)(=O)c2ccc(C)cc2C)CC1
half-life (rat liver microsomes; 60 min, 37 °C): 0.533 h

CNCCNC(=O)c1cc2c([nH]c3ccccc32)c(-c2cc(Cl)c(Cl)c(Cl)c2)n1
half-life (human liver microsomes): 1.33 h

CC(C)(C)N1CCC(NC(=O)c2ccc(C(F)(F)F)cc2Cl)CC1
half-life (human liver microsomes): 9.05 h

Cc1cc(OCCCc2c(C(=O)Nc3cccc(C(=O)O)c3)[nH]c3c(-c4c(C)nn(C)c4C)c(Cl)ccc23)cc(C)c1Cl
half-life (rat liver microsomes): > 0.5 h

COc1ccc2c(c1)c(CC(=O)O[C@H]1C=C[C@@]34CCN(C)Cc5ccc(OC)c(c53)O[C@H]4C1)c(C)n2C(=O)c1ccc(Cl)cc1
half-life (human plasma 80% in PBS; pH 7.4, 37 °C): > 12 h

O=C(NC1CCCCC1)Oc1ccc(O)c(-c2ccccc2)c1
half-life (80% rat plasma; pH 7.4, 37 °C): 15.8 ± 0.45 h

C#CCCCN1C(=O)[C@@]2(CN2[S@@+]([O-])C(C)(C)C)c2ccccc21 (some centres unmarked)
half-life (glutathione): 0.843 h

Some of these lines once more:
Cc1cc(OCCCc2c(C(=O)Nc3cccc(C(=O)O)c3)[nH]c3c(-c4c(C)nn(C)c4C)c(Cl)ccc23)cc(C)c1Cl
half-life (rat liver microsomes): > 0.5 h
